Results of several laboratories.
A part holds a random share of what one study measured.

Block 1
Target: Sal-like protein 4, full length isoform A (SALL4, Homo sapiens, UniProt Q9UJQ4, residues 1-1053)
Sequence of UniProt Q9UJQ4 (whole entry, looked up): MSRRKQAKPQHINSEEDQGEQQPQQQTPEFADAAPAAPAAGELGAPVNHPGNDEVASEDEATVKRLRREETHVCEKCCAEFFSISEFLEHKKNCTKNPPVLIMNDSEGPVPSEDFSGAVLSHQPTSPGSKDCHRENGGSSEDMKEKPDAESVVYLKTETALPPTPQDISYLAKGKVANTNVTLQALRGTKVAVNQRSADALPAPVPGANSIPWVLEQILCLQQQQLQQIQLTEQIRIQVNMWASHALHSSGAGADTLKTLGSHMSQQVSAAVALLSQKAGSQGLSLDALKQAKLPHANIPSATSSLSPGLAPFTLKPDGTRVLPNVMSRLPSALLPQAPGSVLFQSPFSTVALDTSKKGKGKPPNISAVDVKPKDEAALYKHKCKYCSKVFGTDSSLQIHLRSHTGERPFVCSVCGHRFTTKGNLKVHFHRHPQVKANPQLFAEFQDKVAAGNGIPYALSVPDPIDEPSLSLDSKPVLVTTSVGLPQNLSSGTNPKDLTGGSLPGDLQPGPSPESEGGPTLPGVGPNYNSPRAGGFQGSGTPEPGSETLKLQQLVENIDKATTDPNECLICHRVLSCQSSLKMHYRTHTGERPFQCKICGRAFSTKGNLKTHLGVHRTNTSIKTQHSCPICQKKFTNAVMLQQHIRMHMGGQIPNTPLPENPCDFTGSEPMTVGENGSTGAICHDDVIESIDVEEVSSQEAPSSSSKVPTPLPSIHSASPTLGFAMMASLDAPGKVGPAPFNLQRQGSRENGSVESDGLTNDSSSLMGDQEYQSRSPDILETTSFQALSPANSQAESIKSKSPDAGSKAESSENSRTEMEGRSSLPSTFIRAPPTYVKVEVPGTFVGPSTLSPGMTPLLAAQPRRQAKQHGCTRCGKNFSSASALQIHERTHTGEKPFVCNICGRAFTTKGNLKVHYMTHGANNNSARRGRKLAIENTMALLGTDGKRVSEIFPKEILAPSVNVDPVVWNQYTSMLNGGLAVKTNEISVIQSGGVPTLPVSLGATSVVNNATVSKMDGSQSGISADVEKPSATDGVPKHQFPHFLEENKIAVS
Method: universal PBM
Form: double-stranded DNA, one strand shown
Matrix: in vitro
Concentration: 600 nM
Notes: 8-mer, flanks averaged, mean of replicates
Reading: higher = stronger binding
For `AGAATGAG`, the E-score was 0.073.
For `TCCTGTCA`, the E-score was 0.0582.
With `GCCGCCGC` the E-score was -0.359.
With `CTTATTCC` the E-score was 0.169.
`GGCAAACA` gave an E-score of -0.0883.
`ACATGCAG` gave an E-score of 0.0574.
The E-score of `ACTGTCTG` is reported as -0.0355.
The E-score of `CGCTGACA` is reported as -0.128.
With `CGCCCTCA` the E-score was -0.206.
`CGCACCAG` has an E-score of -0.243.
With `CAATAGTG` the E-score was 0.147.
For `ATGGATCG`, the E-score was -0.0606.
With `GGCTTCGA` the E-score was -0.148.
`AGCGATTC` has an E-score of -0.0523.
`AAGACGCG` has an E-score of -0.108.
`GTTCCGAA` gave an E-score of 0.00431.
The E-score of `ACGTGTCG` is reported as -0.0846.

Block 2
Target: Histone acetyltransferase KAT6A, winged helix 1, GST fusion (KAT6A, Homo sapiens, UniProt Q92794, residues 1-85)
Method: protein binding microarray
Form: double-stranded DNA, one strand shown
Matrix: in vitro
Concentration: not given
Notes: 8-mer, flanks averaged, mean of 2 arrays, mostly near background
Reference: not given
Reading: higher = stronger binding
Construct (chain): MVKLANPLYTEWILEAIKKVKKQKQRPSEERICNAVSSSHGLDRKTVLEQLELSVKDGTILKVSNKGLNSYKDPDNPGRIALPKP
`AAGACAAG` has an E-score of -0.025.
With `AAGCTGTC` the E-score was -0.218.
With `AGACTAGC` the E-score was -0.0561.
`CTATCCCA` has an E-score of -0.136.
`GTTTACAA` gave an E-score of -0.216.
`AGATCGAA` has an E-score of -0.162.
`GCGGCGCC` has an E-score of 0.46.
For `GCAAAGTA`, the E-score was -0.106.
With `GGCTCACC` the E-score was 0.0516.
`ACCAACGA` gave an E-score of -0.23.
`ATAGCACC` has an E-score of -0.11.
The E-score of `ACCCGATA` is reported as 0.104.
For `ATAGTGAG`, the E-score was -0.1.
With `AGGGCTTC` the E-score was -0.159.
With `CCAGAGCC` the E-score was 0.0377.
`GCCGTCCA` has an E-score of 0.264.

Block 3
Target: Interferon regulatory factor 3, full length, phosphomimetic (IRF3, Homo sapiens, UniProt Q14653, residues 1-427, S386D/S396D/S398D/S402D/T404D/S405D)
Method: protein-binding microarray
Form: double-stranded DNA, one strand shown
Matrix: in vitro
Concentration: 2540 nM top
Notes: 60-bp whole probe
Added: salmon DNA 0.4 mg/ml
Reference: random background probes
Reading: higher = stronger binding
All sequences stand within: GCCTAGCAC … GTCTTGATTCGCTTGACGCTGCTG
Residues (chain): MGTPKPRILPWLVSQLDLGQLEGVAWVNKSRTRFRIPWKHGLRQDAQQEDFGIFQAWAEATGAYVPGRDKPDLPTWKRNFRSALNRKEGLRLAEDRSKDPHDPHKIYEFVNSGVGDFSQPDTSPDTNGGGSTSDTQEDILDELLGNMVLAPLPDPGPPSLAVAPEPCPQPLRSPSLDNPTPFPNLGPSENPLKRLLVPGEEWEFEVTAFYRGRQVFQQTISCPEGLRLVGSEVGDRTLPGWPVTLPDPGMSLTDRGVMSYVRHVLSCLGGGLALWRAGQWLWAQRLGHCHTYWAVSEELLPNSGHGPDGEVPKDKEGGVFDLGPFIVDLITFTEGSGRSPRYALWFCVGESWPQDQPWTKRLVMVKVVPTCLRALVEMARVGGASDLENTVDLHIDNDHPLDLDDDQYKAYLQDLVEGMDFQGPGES
For `TTTGCTTTCCTGATGGTCTTGTGCTAG`, “fitted relative affinity” read 2.35 z-score.
`TTAGATCTGGGGTTTCGATTAGTGCTA` — result for “fitted relative affinity”: 1.13 z-score.
`GACGGGCTGGGACTGGGGACGTGCTAG` — result for “fitted relative affinity”: -1.2 z-score.
Under “fitted relative affinity”, `CTTCATGTGCCTTTATATACGTGCTAG` is recorded as 0.677 z-score.
Under “fitted relative affinity”, `GACGATATAAGTCTCGAGACGTGCTAG` is recorded as -0.0605 z-score.
`GACGGTATCTTTATCCTGACGTGCTAG`: “fitted relative affinity” 1.24 z-score.
Under “fitted relative affinity”, `GACGGTCTCCTTTTCCTGAGGTGCTAG` is recorded as 4.57 z-score.
`GACGGTTTCGGGTATCGGGTCGTGCTA` — result for “fitted relative affinity”: 4.49 z-score.
`TTAGGACTGGGACTGGCTTAGTGCTAG`: “fitted relative affinity” -0.993 z-score.
`ATAGATATCAGTCTCGATTAGTGCTAG`: “fitted relative affinity” 1.42 z-score.
`TCCATTTTCTAAATTCCCTAGTGCTAG`: “fitted relative affinity” 3.07 z-score.
`TAAAGCATTACTTTAGGTTCGTGCTAG`: “fitted relative affinity” -0.148 z-score.
For `TTAGGTCTCGACTATCGGTTAGTGCTA`, “fitted relative affinity” read -0.0673 z-score.
`TTAGGACGGGGGTATCGGTTAGTGCTA` — result for “fitted relative affinity”: 0.577 z-score.
For `CAAGTTACCCACCTCAGGTAGTGCTAG`, “fitted relative affinity” read 2.39 z-score.
`CTCATTCTCTGTTTATGTCTGTGCTAG`: “fitted relative affinity” 2.52 z-score.
For `TCACTTATCCTTCCCCTACTGTGCTAG`, “fitted relative affinity” read 1.41 z-score.
`TTAGGTTCCCTTTTCCCTTAGTGCTAG`: “fitted relative affinity” 7.51 z-score.

Block 4
Target: RNA binding protein fox-1 homolog 2, RRM domain, GST-SBP tag (RBFOX2, Homo sapiens, UniProt O43251-10, residues 100-194)
Method: RNA Bind-n-Seq
Form: RNA
Matrix: in vitro
Concentration: 365 nM
Notes: natural RNA segment, single round, ends assumed
Reference: no-protein control
Reading: higher = stronger binding
All sequences stand within: GGGAGUUCUACAGUCCGACGAUC … UGGAAUUCUCGGGUGCCAA
Construct (chain): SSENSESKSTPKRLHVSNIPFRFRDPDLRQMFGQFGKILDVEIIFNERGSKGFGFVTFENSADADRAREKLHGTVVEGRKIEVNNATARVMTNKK
For `CUGGUAAUGAGAUUGUAAAUCCAUUUCCUGCGUGUGUUCUCCGCAGGCUUGCCUGAGUGUGUGGGGUGCGCAGGCGCGUGCCUGUCUUUUUGUACUGUAACUACCUCAUG`, “RBNS enrichment (R)” read 0.305.
`GGGAUGGGGCCAUCUCCUUCACCGUGGCUACCAUUGUCACUCGUAGGGGAUGUGGAGUGAGAACAGCAUUUAGUGAAGUUGUGCAACGGCCAGGGUUGUGCUUUCUAGCA`: “RBNS enrichment (R)” 2.75.
For `GCUCGACCAAGCCGAAUUGCAAACAACGUUCGUUCUAUUUUUAAAUGUACAGGUUCGAUCGUUUCUAUAGAAAUGGGUUUAUCUAAGAAAAGUCUUGGUUUGUCUUGCUG`, “RBNS enrichment (R)” read 0.603.
`UCUGAGAUUCUGGUCCCUGGAAAUCCCUUUCUGCUAGUGGUGAGCAUGUAAGUGUUAAGUUUUUAAUCUGGGAGCAGGGCAUAGGAAGAAAAUGUCAGUAGUGCUAAUGC` — result for “RBNS enrichment (R)”: 5.73.
For `GCUGAUGAUGCGCAACCCUGCUGACUGUUUCAGUUAAUAUGCUGCACACCACACACUUGUUUAGUGAACCAAAUCUAGAAAGUACCAAGGCAGAGGUAUGCUCCUGCUGU`, “RBNS enrichment (R)” read 0.268.
Under “RBNS enrichment (R)”, `GCCUGAGGACACUCCUGUCGUUGCUGCAGAAGCUGCUGCCCCUGUUCCAUCUGCUGUACUAACCAGGAGCCCUCCCAUGGAGAUGCAGCCCCCUGUCUCUCCUCAGCAGU` is recorded as 0.371.
For `CUUCUAGGGCUCUGAAUACGGGCUUAAAGUCAUCUUGUCCUGCUGGAAUUUGCUGUGCAGAGCCAUAAGCCUCCCAUUUUGUUAGCGUCAGCUAGGCCAAUAGGAACAGA`, “RBNS enrichment (R)” read 0.309.
For `CUCACCCCAGACCACUUAAAUCCUAUCUUUGGUAAAACGCAGGUAUCAGAGAAGCAUAUUUCCCUUGUGUCUCUUAAUACUGUCAUCUUGAAACUCUCUCUAGGAAAAAU`, “RBNS enrichment (R)” read 0.407.
`UGGACCACCAAGGGGUUGUUGAAAACUAAUUGUAUUAAAUGUCUUUUGAUAAGCCUUCUGCUCACAUUUUUGUGAAUGUCUGAAGUAUAUAGUUUGUGUAUAUUGACAGA`: “RBNS enrichment (R)” 0.389.

Excerpt of the above (block 1):
For `TCCTGTCA`, the E-score was 0.0582.
With `GCCGCCGC` the E-score was -0.359.
With `CTTATTCC` the E-score was 0.169.
`GGCAAACA` gave an E-score of -0.0883.
`ACATGCAG` gave an E-score of 0.0574.
